# Measured values from different studies.
# Lines come from different studies, so protocols differ.
Structure (SMILES),target,assay,test system,setting,scale,measurement,value
O=C(Cc1ccc(I)cc1)N[C@H]1CCOC1=O,ExpR2 (Pectobacterium carotovorum),"cellulase activity, agonist","Pectobacterium carotovorum, single-ExpR2 strain","200 µM, 4 h",relative to: OHHL,activation,19%
CCCCCCCCCCCCCCCC[N+](C)(C)Cc1ccccc1.[Cl-],biotinylated rabbit IgG,,,"11-point dose-response, protein A and streptavidin binding",,maximum response,20.7%
CCOP(=S)(OCC)SCCSCC,nanobody A4,ic-ELISA,,concentration not given,"relative to: coumaphos IC50 over compound IC50, molar basis",cross-reactivity,< 1%
CCCCCCCC/C=C/CCCCCCCC(=O)O,biotinylated rabbit IgG,,,"11-point dose-response, protein A and streptavidin binding",,maximum response,19.2%
Nc1nc2c(ncn2[C@@H]2O[C@@H]3COP(=O)(O)O[C@H]4[C@@H](O)[C@H](n5cnc6c(N)ncnc65)O[C@@H]4COP(=O)(O)O[C@@H]2[C@@H]3O)c(=O)[nH]1,STING (human),Blue-Native PAGE,HEK293T expressing STING,100 µM,,time to peak STING oligomerization,≤ 10 min
COC(=O)Nc1nc2ccc([S+]([O-])c3ccccc3)cc2[nH]1 (centres unmarked),biotinylated rabbit IgG,,,"11-point dose-response, protein A and streptavidin binding",,maximum response,13%
CCOP(=S)(OCC)SCn1c(=O)oc2cc(Cl)ccc21,nanobody A4,ic-ELISA,,concentration not given,"relative to: coumaphos IC50 over compound IC50, mass basis",cross-reactivity,3%
O=C(Nc1cccnn1)N1CCN([C@@H]2CCOc3cc(C(F)(F)F)ccc32)CC1,"L-type calcium channel, verapamil site",binding,,20 µM,,inhibition,-6%
COc1cc(Nc2ncc(F)c(Nc3ccc4c(n3)NC(=O)C(C)(C)O4)n2)cc(OC)c1OC,VEGF,,,,,IC50,> 10 µM
O=C(Cc1cccc(Br)c1)N[C@H]1CCOC1=O,ExpR2 (Pectobacterium carotovorum),"cellulase activity, antagonist","Pectobacterium carotovorum, single-ExpR2 strain","5 µM, 4 h, added: OHHL 5 µM",,inhibition,59%
CCCCCCCCCCCCCCCCC(C(=O)O)C(O)(CC(=O)O)C(=O)O (centres unmarked),biotinylated rabbit IgG,,,"11-point dose-response, protein A and streptavidin binding",,maximum response,5.4%
O=C(Cc1cccc(Cl)c1)N[C@H]1CCOC1=O,ExpR2 (Pectobacterium carotovorum),"cellulase activity, antagonist","Pectobacterium carotovorum, single-ExpR2 strain","5 µM, 4 h, added: OHHL 5 µM",,inhibition,54%
COP(=S)(OC)Oc1ccc([N+](=O)[O-])c(C)c1,nanobody A4,"binding, ic-ELISA",,,,IC50,> 10 µM
O=C(Cc1ccc2ccccc2c1)N[C@H]1CCOC1=O,ExpR2 (Pectobacterium carotovorum),"cellulase activity, agonist","Pectobacterium carotovorum, single-ExpR2 strain","200 µM, 4 h",relative to: OHHL,activation,56%
CCOP(=S)(OCC)Oc1nc(Cl)c(Cl)cc1Cl,nanobody A4,ic-ELISA,,concentration not given,"relative to: coumaphos IC50 over compound IC50, molar basis",cross-reactivity,< 1%
CCCCCCCCCC(=O)N[C@H]1CCOC1=O,ExpR2 (Pectobacterium carotovorum),"cellulase activity, agonist","Pectobacterium carotovorum, single-ExpR2 strain","200 µM, 4 h",relative to: OHHL,activation,44%
CCOP(=S)(OCC)O/N=C(\C#N)c1ccccc1,nanobody A4,ic-ELISA,,concentration not given,"relative to: coumaphos IC50 over compound IC50, mass basis",cross-reactivity,6%

# For quick reference, copied from above:
Structure (SMILES),target,assay,test system,setting,scale,measurement,value
CCOP(=S)(OCC)SCn1c(=O)oc2cc(Cl)ccc21,nanobody A4,ic-ELISA,,concentration not given,"relative to: coumaphos IC50 over compound IC50, mass basis",cross-reactivity,3%
O=C(Nc1cccnn1)N1CCN([C@@H]2CCOc3cc(C(F)(F)F)ccc32)CC1,"L-type calcium channel, verapamil site",binding,,20 µM,,inhibition,-6%
COc1cc(Nc2ncc(F)c(Nc3ccc4c(n3)NC(=O)C(C)(C)O4)n2)cc(OC)c1OC,VEGF,,,,,IC50,> 10 µM
